Published values collected from several papers.
Compare with care: the assays were run in different laboratories. Values joined by “and” are separate records of one study, mostly repeats; a detail may differ. ± marks the error that the study gave.

| SMILES | assay | system | setting | scale | endpoint | value |
| --- | --- | --- | --- | --- | --- | --- |
| COc1ccc(-c2ccc3c(N4CCOC[C@@H]4C)nc(N4CCOC[C@@H]4C)nc3n2)cc1COC(=O)CCOCCOCCOCCONC(=O)c1ccc(F)c(F)c1Nc1ccc(I)cc1F | flow cytometry | JAK2V617F myelofibrosis mouse, splenocytes | 40 mg/kg daily, seven days | – | pERK1/2 level | decreased |
| CN(C(=O)n1cnc(-c2ccc[n+]([O-])c2)c1)C1CCCCC1 | measured: LEA | human, plasma | 10 mg once daily, day 10 | – | AUC(0-tau) | 122 ng·h/mL |
| N#Cc1ccn2c(-c3ccncc3)c(-c3ccc(F)cc3)nc2c1 | kinase binding, competitor, MIB/MS competition, measured: CMK1 | Candida albicans cell lysate | 100 nM | relative to: DMSO | log2 fold change | -0.114 |
| O=C1CCc2ccc(OCCCCN3CCN(c4cccc(Cl)c4Cl)CC3)cc2N1 | – | patients CYP2D6 UM | 3 months | – | stopping or switching | 30% |
| Cn1cc(Nc2nccc(-c3ccc4c(c3)CN(C3COC3)CC[C@H]4NC(=O)c3cn(C(C)(C)C)nn3)n2)cn1 | measured: TSP1 angiogenesis inhibition | splenic B cells, mice | 30 mg/kg, IgD-activated in vivo | relative to: vehicle, direction not given | pathway activation z-score | 0.447 |
| Oc1ccc(Br)cc1C=NCCN1CCOCC1 | nitric oxide scavenging | – | 200 µM | – | inhibition | 39.4% |
| [Cl-].[Cl-].[Pt+2].[Ru+2].c1ccc(-c2nc3cc4ccccc4cc3nc2-c2ccccn2)nc1.c1cnc2c(c1)ccc1cccnc12.c1cnc2c(c1)ccc1cccnc12 | chloride substitution, UV-vis kinetics | aqueous buffer | concentration not given, pH 7.2, first substitution step, with: thiourea | – | negative activation entropy | 177 ± 3 J/(mol·K) |
| N#Cc1ccc(C(c2ccc(C#N)cc2)n2cncn2)cc1 | ELISA | human patients, tumour homogenate | 12.5 mg daily | – | estradiol concentration | 390 ± 71.6 pg/mL |
| COc1ccc(-c2cncc(N[C@@H](C)c3cccc(NC(=O)c4cncc(C)c4)c3)n2)cc1OC | measured: rno-miR-224-5p | rat SU5416/hypoxia model, lung | dose not given, unit not given | relative to: SU5416/hypoxia vehicle | delta delta Ct | 0.506 |
| COc1cc2cc(-c3ccc(CC(=O)Nc4cc(C(C)(C)C(F)(F)F)no4)cn3)cnc2cc1OC | RECIST v1.1 | human RET-altered solid tumours | 75 mg, phase I pooled | – | best overall response PD | 26% |
| C[C@H](Oc1ccc(Br)cc1-c1ccon1)C(=O)O | handgrip dynamometry | healthy human males | 400 mg twice daily, multiple doses, from 90% to 5% of MVC | relative to: placebo | grip release time | -33.4 ms |
| N#Cc1ccc2c(c1)[C@H]1CCCN(C(=O)c3ccc4[nH]cnc4c3)[C@H]1C2 | – | human clinical trial | oral, 240 mg once daily, 28 d | – | body weight change from baseline | -0.11 kg |
| CCCCC1(CCCC)CN(c2ccccc2)c2cc(SC)c(OCC(=O)N[C@@H](C(=O)NCC(=O)O)c3ccccc3)cc2S(=O)(=O)C1 | qPCR | male mice, ileum | 1 mg/kg, after mixed meal tolerance test | relative to: PBS | Shp mRNA level | no effect |
| Cc1noc(C)c1-c1cc(C(O)(c2ccccn2)c2ccccn2)c2nc(C3CC3)[nH]c2c1 | measured: HEXIM1 expression | human patients | dose not given, day 1, 24 h | – | maximum induction | 24.7% |
| C[C@H]1C[C@H]2CSC(N)=N[C@@]2(c2nc(NC(=O)c3ccc(OC(F)F)cn3)cs2)CO1 | measured: total Aβ | healthy adults, plasma | 15 mg once daily, day 4 | relative to: placebo | percent change from baseline | -45.8% |
| O=C(O)CNC(=O)Cc1ccccc1 | – | ventricular cardiomyocytes, C57BL/6 mouse | dose not given, 0.716 s | – | sarcomere length | 1.72 µm |
| CS(=O)(=O)CCNCc1ccc(-c2ccc3ncnc(Nc4ccc(OCc5cccc(F)c5)c(Cl)c4)c3c2)o1 | tumour growth | HT115, mouse, subcutaneous HT115 xenograft | oral, 21 days daily, colon cancer | – | ED50 | 52.7 mg/kg |
| O[C@H]1CCCN[C@@H]1CCCn1cnc2c(Cl)c(Cl)ccc21 | ELISA, measured: Pro-C6 | healthy human volunteers, serum | intraduodenal, 200 mg twice daily, day 14, multiple ascending dose | – | AUC(0-tau) | 132 ng·h/mL |
| COc1nnc2ccc(N3CCC(c4ccc(OCCN5CCN(C)C(=O)[C@H]5C)cc4)CC3)nn12 | – | patients | 5 mg twice daily, monotherapy and combination cohorts | – | time HEXIM1 above threshold | 4.87 h |
| O=C1N(Cc2ccccc2Cl)c2ccccc2C12NN=C(c1ccccc1)S2 (stereo not shown) | – | PANC-1 xenograft, mouse | intravenous, 947 mg/kg twice daily, subcutaneous xenograft | relative to: vehicle | T/C | 71% |
| N#CCNC(=O)c1ccc(-c2ccnc(Nc3ccc(N4CCOCC4)cc3)n2)cc1 | – | patients with myelofibrosis | 24 weeks, phase III trials | – | transfusion independence rate | 54.4% |
| CCN(Cc1nc2c(N)nc3cc(-c4cc[nH]n4)ccc3c2[nH]1)C(C)=O | Luminex, measured: IL-1β | cancer patients, serum | 1200 µg monotherapy, first 24 h | relative to: baseline | fold change | 2.9 |
| Cn1cc([C@H]2C[C@H]3CSC(N)=N[C@@]3(c3ccc(F)cc3F)CO2)cn1 | measured: Aβx-42 | Mus musculus wild-type, brain | subcutaneous, 3 mg/kg, 1 h | – | Aβ42 level | 0.56 ng/g |

| SMILES | assay | system | setting | scale | endpoint | value |
| --- | --- | --- | --- | --- | --- | --- |
| Cn1nnc2c(C(N)=O)ncn2c1=O | – | mouse subcutaneous GBM PDX sample A | subcutaneous, dose not given | – | T/C ratio | 93% |
| C[C@H]1O[C@@H](O[C@H]2CC[C@@]3(C)[C@@H](CC[C@]4(C)[C@@H]3C=C[C@]35OC[C@@]6(CCC(C)(C)C[C@H]63)[C@@H](O)C[C@]54C)[C@]2(C)CO)[C@H](O)[C@@H](O[C@@H]2O[C@H](CO)[C@@H](O)[C@H](O)[C@H]2O)[C@H]1O | qRT-PCR, measured: SIRT1 | mice, normal diet, liver | dose not given, high dose | relative to: control mice | mRNA level | 0.935 fold change and 0.895 fold change and 1.52 fold change |
| Cc1ccc(C(=O)Nc2ccnc(S(N)(=O)=O)c2)c(N2CCCC(F)(F)CC2)n1 | C-nociceptor recordings | rhesus macaque | dose not given | – | conduction velocity | no effect |
| OC[C@H]1O[C@@H](c2ccc(F)c(Cc3cc4ccccc4s3)c2)[C@H](O)[C@@H](O)[C@@H]1O | continuous glucose monitoring | Japanese type 1 diabetes patients | 50 mg/day, day 14 | relative to: baseline | time glucose at most 70 mg/dL | -1.04 ± 9.99 % change |
| OC(CCN1CCCCC1)(c1ccccc1)C1CC2C=CC1C2 (stereo not shown) | resting-state EEG | healthy elderly humans | oral, 2 mg, eyes open, LS mean | relative to: baseline | EEG beta power, O2 Pz, change in | 5.8% |
| Cc1c(C(=O)Nc2ccc(N3C[C@@H](C)O[C@@H](C)C3)nc2)cccc1-c1ccc(OC(F)(F)F)cc1 | indirect response model, measured: Gli1 mRNA, stromal | mouse | – | – | Hill coefficient | 6.38 |
| CCCCCCCCCCCCCCCC(=O)NCCO | mechanical withdrawal threshold | mouse, carrageenan inflammatory pain | oral | – | ED50 | 34.3 mg/kg |
| [Cl-].[Cl-].[Pt+2].[Ru+2].c1ccc(-c2nccnc2-c2ccccn2)nc1.c1cnc2c(c1)ccc1cccnc12.c1cnc2c(c1)ccc1cccnc12 | chloride substitution, UV-vis kinetics | aqueous buffer | concentration not given, pH 7.2, first substitution step, with: L-methionine | – | negative activation entropy | 163 ± 7 J/(mol·K) |
| CC(C)NCC(O)c1ccc(O)c(O)c1 (stereo not shown) | – | ventricular cardiomyocytes, C57BL/6 mouse | dose not given, 0.092 s | – | sarcomere length | 1.72 µm |
| N#Cc1ccc2c(-c3ccncc3)c(-c3ccc(F)cc3)nn2c1 | kinase binding, competitor, MIB/MS competition, measured: YAK1 | Candida albicans cell lysate | 100 nM | relative to: DMSO | log2 fold change | 0.215 |
| O=C(OC(C(F)(F)F)C(F)(F)F)N1CCN(Cc2cccc(Oc3ccccc3)c2)CC1 | PET blocking study | rhesus monkey, brain HIP | 0.01 mg/kg, compound pretreatment, with: [18F]T-401 tracer | – | k4 | 0.0819 min⁻¹ |
| O=C(O)c1ccc(-n2cc(CNc3ccc(Cl)c(C(F)(F)F)c3)c(-c3cccc(F)c3)n2)cc1 | – | Caenorhabditis elegans, S. aureus infected | 2 µg/mL, 5 days | – | survival | ~70% |
| C[C@@H](O)CCOC(=O)C[C@@H](C)O | – | human | oral drink, dose not given, 60 min post dose, median, all participants | – | plasma NEFA | 0.2 mM |
| CC(C)C[C@@H](NC(=O)[C@H](C)NC(=O)CNC(=O)[C@@H](NC=O)C(C)C)C(=O)N[C@@H](C)C(=O)N[C@@H](C(=O)N[C@H](C(=O)N[C@@H](C(=O)N[C@@H](Cc1c[nH]c2ccccc12)C(=O)N[C@H](CC(C)C)C(=O)N[C@@H](Cc1cccc2cc[nH]c12)C(=O)N[C@H](CC(C)C)C(=O)N[C@@H](Cc1c[nH]c2ccccc12)C(=O)N[C@H](CC(C)C)C(=O)N[C@@H](Cc1c[nH]c2ccccc12)C(=O)NCCO)C(C)C)C(C)C)C(C)C | H+/Na+ transport, pyranine pH-gradient | EYPC/cholesterol LUVs 2:1 | – | – | EC50 | 14.2 ± 7.78 nM |
| C=CCn1c(=O)c2cnc(Nc3ccc(N4CCN(C)CC4)cc3)nc2n1-c1ccc2c(n1)[C@@](O)(CC)CC2 | – | A2780 xenograft, BALB/c nude mice | oral, 80 mg/kg once daily x 8, day 9 | – | tumour volume difference | 2280 ± 109 mm3 |
| Cc1oncc1C(=O)Nc1ccc(C(F)(F)F)cc1 | measured: dihydroorotate | female CD-1 mice, pooled urine | oral, 10 mg/kg daily, 0-8 h after dose 1, 10-day dosing | – | DHO concentration | 383 ± 24.8 µM |
| COC(=O)c1c(C)[nH]c(C)c1C(=O)c1ccccc1Cc1ccccc1 | high-content microscopy | DRG neurons, rat | dose not given, unit not given, with: DAMGO 0.3 | relative to: no DAMGO | serotonin-induced response | 0.588 and 0.387 and 0.503 and 0.575 |
| c1ccc(-c2n[nH]cc2-c2ccnc3ccccc23)nc1 | kinase binding, competitor, MIB/MS competition, measured: CMK1 | Candida albicans cell lysate | 10 µM | relative to: DMSO | log2 fold change | 1.6 |
| O=C1c2ccncc2C(=O)c2c1[nH]c1ccccc21 | – | female monocrotaline PAH rat | dose not given | relative to: vehicle | cardiac index | increased |
| NC(=O)c1cnc2[nH]ccc2c1N[C@@H]1[C@@H]2CC3C[C@H]1C[C@@](O)(C3)C2 | CD4+ memory T cells, flow cytometry | Japanese humans, peripheral blood | 20 mg single dose | relative to: baseline | percent change | 0.05% |
| CN(C)C(=O)c1cc2cnc(Nc3ccc(N4CCNCC4)cn3)nc2n1C1CCCC1 | RNA-seq GSEA, measured: HALLMARK_APICAL_SURFACE | MB002 tumour | concentration not given, in vivo | relative to: vehicle, direction not given | GSEA enrichment score | 0.362 |
| CSCCNc1nc(SCCC(F)(F)F)nc2c1ncn2[C@@H]1O[C@H](COP(=O)(O)OP(=O)(O)C(Cl)(Cl)P(=O)(O)O)[C@@H](O)[C@H]1O | light transmittance aggregometry | human patients, platelet-rich plasma | dose not given, 1 h, with: ADP 20 µM | relative to: patients | patients with IPA above 90% | 0% |
| N=C(N)NCCC[C@H](NC(=O)[C@H](CCCNC(=N)N)NC(=O)[C@H](CCCCN)NC(=O)[C@H](CCC(N)=O)NC(=O)[C@H](CCCCN)NC(=O)[C@H](Cc1ccc(O)cc1)NC(=O)[C@@H](N)CCCCN)C(=O)N[C@@H](CO)C(=O)N[C@@H](Cc1ccc(O)cc1)C(=O)N[C@@H](CCCCN)C(=O)O | – | dentin hypersensitivity patients | 2.5 µg/tooth single, day 22 | relative to: baseline | median cold water VAS change | -35.5 mm |

For quick reference, copied from above:
| SMILES | assay | system | setting | scale | endpoint | value |
| --- | --- | --- | --- | --- | --- | --- |
| CS(=O)(=O)CCNCc1ccc(-c2ccc3ncnc(Nc4ccc(OCc5cccc(F)c5)c(Cl)c4)c3c2)o1 | tumour growth | HT115, mouse, subcutaneous HT115 xenograft | oral, 21 days daily, colon cancer | – | ED50 | 52.7 mg/kg |
| O[C@H]1CCCN[C@@H]1CCCn1cnc2c(Cl)c(Cl)ccc21 | ELISA, measured: Pro-C6 | healthy human volunteers, serum | intraduodenal, 200 mg twice daily, day 14, multiple ascending dose | – | AUC(0-tau) | 132 ng·h/mL |
| COc1nnc2ccc(N3CCC(c4ccc(OCCN5CCN(C)C(=O)[C@H]5C)cc4)CC3)nn12 | – | patients | 5 mg twice daily, monotherapy and combination cohorts | – | time HEXIM1 above threshold | 4.87 h |
| O=C1N(Cc2ccccc2Cl)c2ccccc2C12NN=C(c1ccccc1)S2 (stereo not shown) | – | PANC-1 xenograft, mouse | intravenous, 947 mg/kg twice daily, subcutaneous xenograft | relative to: vehicle | T/C | 71% |
| N#CCNC(=O)c1ccc(-c2ccnc(Nc3ccc(N4CCOCC4)cc3)n2)cc1 | – | patients with myelofibrosis | 24 weeks, phase III trials | – | transfusion independence rate | 54.4% |
| CCN(Cc1nc2c(N)nc3cc(-c4cc[nH]n4)ccc3c2[nH]1)C(C)=O | Luminex, measured: IL-1β | cancer patients, serum | 1200 µg monotherapy, first 24 h | relative to: baseline | fold change | 2.9 |
| Cn1cc([C@H]2C[C@H]3CSC(N)=N[C@@]3(c3ccc(F)cc3F)CO2)cn1 | measured: Aβx-42 | Mus musculus wild-type, brain | subcutaneous, 3 mg/kg, 1 h | – | Aβ42 level | 0.56 ng/g |
